Experimental data from different studies.
Lines come from different studies, so protocols differ. ± gives the spread as reported.

`O=C(c1nc2n(n1)[C@H](c1ccccc1)C[C@@H]2F)C1CC1` has a Cmax of 946 ng/mL (geometric LS mean; human, high-fat meal, plasma; oral, 75 mg single dose).
For `C=CC(=O)N1CCC[C@@H](n2c(=O)n(-c3ccc(Oc4ccccc4)cc3)c3c(N)nccc32)C1`, the Cmax was 77.1 ng/mL (human, fed, plasma; oral, 240 mg, geometric mean).
For `CCN1CCN(Cc2ccc(Nc3ncc(F)c(-c4cc(F)c5nc(C)n(C(C)C)c5c4)n3)nc2)CC1`, the Cmax was 95.8 ng/mL (healthy human, fasted; oral, 150 mg, 3 x 50 mg capsules).
`CNC(=O)c1c(C)oc2cc(Oc3ncnc4cc(OC)c(OC)cc34)ccc12` gave a Cmax of 118 ng/mL (human, normal hepatic function (Child-Pugh), plasma; oral, 5 mg, single dose).
The Cmax of `C[C@H](CCC(=O)NCC(=O)O)[C@H]1CC[C@H]2[C@@H]3CC[C@@H]4C[C@H](OS(=O)(=O)O)CC[C@]4(C)[C@H]3C[C@H](O)[C@]12C` is reported as 458 ± 139 nM (human, plasma; concentration not given, endogenous baseline diurnal).
`N#Cc1ccc2c(c1)[C@H]1CCCN(C(=O)c3ccc4[nH]cnc4c3)[C@H]1C2` has a Cmax of 5810 nM (human, plasma; oral, 80 mg once daily, after first dose).
`C[C@H](Oc1ccc(Br)cc1-c1ccon1)C(=O)O` gave a Cmax of 27000 ng/mL (LC-MS/MS, non-compartmental; human, plasma; 600 mg once daily, day 1, multiple ascending dose, mean).
`N#CCNC(=O)c1ccc(-c2ccnc(Nc3ccc(N4CCOCC4)cc3)n2)cc1` gave a Cmax of 487 ng/mL (healthy human volunteers, plasma; oral, dose not given, day 12, without rifampin).
`Cn1cc(-c2ccc(S(=O)(=O)[C@@H]3C[C@@H](C(=O)NC4(C#N)CC4)N(C(=O)C4(C(F)(F)F)CC4)C3)c(C(F)(F)F)c2)cn1` has a Cmax of 1380 ng/mL (noncompartmental analysis; human, plasma; oral, 200 mg, day 1, with food, geometric mean).
`CC[C@H](C)[C@H](NC(=O)[C@H](Cc1ccccc1)NC(=O)[C@H](CCC(=O)O)NC(=O)[C@H](CCCCNC(=O)COCCOCCNC(=O)COCCOCCNC(=O)CC[C@H](NC(=O)CCCCCCCCCCCCCCCCC(=O)O)C(=O)O)NC(=O)[C@H](C)NC(=O)[C@H](C)NC(=O)[C@H](CCC(N)=O)NC(=O)CNC(=O)[C@H](CCC(=O)O)NC(=O)[C@H](CC(C)C)NC(=O)[C@H](Cc1ccc(O)cc1)NC(=O)[C@H](CO)NC(=O)[C@H](CO)NC(=O)[C@@H](NC(=O)[C@H](CC(=O)O)NC(=O)[C@H](CO)NC(=O)[C@@H](NC(=O)[C@H](Cc1ccccc1)NC(=O)[C@@H](NC(=O)CNC(=O)[C@H](CCC(=O)O)NC(=O)C(C)(C)NC(=O)[C@@H](N)Cc1cnc[nH]1)[C@@H](C)O)[C@@H](C)O)C(C)C)C(=O)N[C@@H](C)C(=O)N[C@@H](Cc1c[nH]c2ccccc12)C(=O)N[C@@H](CC(C)C)C(=O)N[C@H](C(=O)N[C@@H](CCCNC(=N)N)C(=O)NCC(=O)N[C@@H](CCCNC(=N)N)C(=O)NCC(=O)O)C(C)C` has a Cmax of 9.54 nM (human, plasma; 7 mg, model-estimated mean).
`C=CC(=O)N1C[C@H](Nc2ncnc3[nH]ccc23)CC[C@@H]1C` has a Cmax of 272 ng/mL (human, plasma; oral, 50 mg single dose, alone without rifampicin).
`NCCCS(=O)(=O)O` gave a Cmax of 815 ng/mL (human, plasma; oral, 171 mg twice daily, day 7, capsule, fasted, dosed days 2-7).
`NC(=O)c1[nH]cnc1N` has a Cmax of 4460 ng/mL (human patients, plasma; IV infusion over 1 h, 1000 mg/m^2 DTIC, cycle 1 day 1, DTIC alone).
For `COCCOc1cnc2ccn([C@H](C)c3nnc4c(F)cc(-c5cnn(C)c5)cn34)c(=O)c2c1`, the Cmax was 5760 ng/mL (human patients, expansion, plasma; oral, 300 mg once daily, day 1).
For `CN(C)C(=O)c1cc2cnc(Nc3ccc(N4CCNCC4)cn3)nc2n1C1CCCC1`, the Cmax was 538 ng/mL (human, severe renal impairment, plasma; oral, 400 mg, geometric mean).
For `C=CC(=O)NC1CCN(c2ncc3ncnc(Nc4ccc(Oc5ccc6c(c5)ncn6C)c(C)c4)c3n2)CC1`, the Cmax was 213 nM (human, male, plasma; oral, 30 mg, fed, adjusted geometric mean).
`Cn1ncnc1[C@H]1c2n[nH]c(=O)c3cc(F)cc(c23)N[C@@H]1c1ccc(F)cc1` has a Cmax of 8.1 ng/mL (human patients, plasma; oral, 600 µg/m2 twice daily, day 1, monotherapy, dose level DL6, median).
For `CNC(=O)c1ccccc1Sc1ccc2c(/C=C/c3ccccn3)n[nH]c2c1`, the Cmax was 36.5 ng/mL (human, mild hepatic impairment (NCI), plasma; single dose, geometric mean, total drug).
With `O=C(O)CCCCCCCCCCCCC(=O)O` the Cmax was 146 ± 29 nM (human, plasma; concentration not given, endogenous baseline diurnal).
`Cc1noc(C)c1-c1cc(C(O)(c2ccccn2)c2ccccn2)c2nc(C3CC3)[nH]c2c1` has a Cmax of 264 ng/mL (human male patients, fasted, plasma; oral, 3 mg once daily, cycle 1 day 8).

Repeated from above:
For `CCN1CCN(Cc2ccc(Nc3ncc(F)c(-c4cc(F)c5nc(C)n(C(C)C)c5c4)n3)nc2)CC1`, the Cmax was 95.8 ng/mL (healthy human, fasted; oral, 150 mg, 3 x 50 mg capsules).
